Published values from different studies.
Every numbered part comes from another study and shows a few of its results, in no order.

Set 1
Target: RING finger protein unkempt homolog, zinc fingers 1-6, GST-SBP tag (UNK, Homo sapiens, UniProt Q9C0B0, residues 30-357)
UniProt Q9C0B0, sequence (30-357, looked up): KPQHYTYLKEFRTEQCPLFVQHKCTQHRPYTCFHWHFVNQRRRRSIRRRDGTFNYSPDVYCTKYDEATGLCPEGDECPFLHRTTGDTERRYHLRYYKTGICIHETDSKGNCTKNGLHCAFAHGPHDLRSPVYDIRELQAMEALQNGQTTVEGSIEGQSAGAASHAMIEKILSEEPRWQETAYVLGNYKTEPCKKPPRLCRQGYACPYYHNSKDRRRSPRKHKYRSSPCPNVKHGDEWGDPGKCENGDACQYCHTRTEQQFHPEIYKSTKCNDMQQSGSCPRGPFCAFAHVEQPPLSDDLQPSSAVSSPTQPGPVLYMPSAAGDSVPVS
Technique: RNA Bind-n-Seq
Form: RNA
Matrix: in vitro
Concentration: not given
Setting: RNA with constant flanks, human-mouse chimeric sites, ends assumed
Reference: input RNA pool
Reading: higher = stronger binding
Endpoint: bound/input enrichment
GGGAGUUCUACAGUCCGACGAUCGCUGGAUCUUCUAAGUACCAGUGGGACAUUAUGAAAUCCCUUGGGCUGUCUGAUGAAGACAUAGUGAAGUUUUCUGAAGCAGAGCACUGGCUUGAUUAUUUCCCACCACUGGCCGUUCAGCAACAGAGGAUUGAGCAUCA: 0.177 ratio
GGGAGUUCUACAGUCCGACGAUCGAAUCCUACUCAGGCGGAUUUUGCAACCUGAAUGCAACAGCAGCAGCAUCUUAGUCACAGUAGGGUAGUUUUGGGGCUCUGUGGCCAGGGUUUUAUUCACAUGCAGGUUUGGAAAAUGUACAACAGAGGAUUGAGCAUCA: 1.15 ratio
GGGAGUUCUACAGUCCGACGAUCCUCAGAGAUGUGGCAUAUCAGUAUGUGAAAAAGGGGUCUCGAAUUUAUGUGGAAGGGAAAGUGGACUAUGGCGAGUACAUGGAUAAAAACAAUGUGAGGCGGCAAGCAACAACAAUCAUACAACAGAGGAUUGAGCAUCA: 0.387 ratio
GGGAGUUCUACAGUCCGACGAUCAUCCCAAUUAUGGACACCGGUGAAAACCCAGAGGUUCCCUUCCCCCGGGACAUGAUUGACUUAGAGGCCAAUUUUGAGAAGAUUGAAAAUGAACUGAAGGAAAUCAACACUAACCAGGAACAACAGAGGAUUGAGCAUCA: 0.286 ratio

Set 2
Target: Sal-like protein 4, full length isoform A (SALL4, Homo sapiens, UniProt Q9UJQ4, residues 1-1053)
UniProt Q9UJQ4, sequence (whole entry, looked up): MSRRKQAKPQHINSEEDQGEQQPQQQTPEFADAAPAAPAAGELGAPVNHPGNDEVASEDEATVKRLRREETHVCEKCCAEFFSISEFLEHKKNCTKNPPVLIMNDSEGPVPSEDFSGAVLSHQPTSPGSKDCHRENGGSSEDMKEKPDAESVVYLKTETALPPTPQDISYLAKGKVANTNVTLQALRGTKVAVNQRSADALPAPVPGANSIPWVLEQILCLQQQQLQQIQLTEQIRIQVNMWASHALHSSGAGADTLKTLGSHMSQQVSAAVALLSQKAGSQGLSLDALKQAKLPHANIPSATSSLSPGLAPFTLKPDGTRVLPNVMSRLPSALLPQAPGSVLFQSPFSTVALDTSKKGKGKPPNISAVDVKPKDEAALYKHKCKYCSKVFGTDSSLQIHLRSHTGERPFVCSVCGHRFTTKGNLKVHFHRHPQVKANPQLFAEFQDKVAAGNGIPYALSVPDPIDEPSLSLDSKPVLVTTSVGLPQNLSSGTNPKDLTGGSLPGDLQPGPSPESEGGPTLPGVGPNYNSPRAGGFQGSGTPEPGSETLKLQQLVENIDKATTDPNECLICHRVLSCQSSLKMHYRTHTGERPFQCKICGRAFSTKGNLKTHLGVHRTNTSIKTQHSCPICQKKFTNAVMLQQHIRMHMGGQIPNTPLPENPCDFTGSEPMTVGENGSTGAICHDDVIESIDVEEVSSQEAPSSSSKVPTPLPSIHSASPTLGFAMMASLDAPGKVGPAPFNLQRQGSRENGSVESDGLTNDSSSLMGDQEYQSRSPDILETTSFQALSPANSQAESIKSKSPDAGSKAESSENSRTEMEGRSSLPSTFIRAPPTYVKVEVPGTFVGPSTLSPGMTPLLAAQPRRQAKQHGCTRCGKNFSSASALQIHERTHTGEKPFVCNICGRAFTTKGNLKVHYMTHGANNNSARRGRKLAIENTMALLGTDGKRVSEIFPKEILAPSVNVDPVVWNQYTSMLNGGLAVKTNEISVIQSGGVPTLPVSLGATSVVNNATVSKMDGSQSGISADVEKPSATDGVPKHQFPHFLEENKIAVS
Technique: universal PBM
Form: double-stranded DNA, one strand shown
Matrix: in vitro
Concentration: 600 nM
Setting: 8-mer, flanks averaged, mean of replicates
Reading: higher = stronger binding
Endpoint: E-score
CAACATAG: 0.138
AAGTTGCA: 0.128
CCCACGGA: -0.292
AAGAGTCA: 0.097
CTGTTAGA: 0.037
AAATGCGT: 0.177
ACTTCAAG: 0.161
GACACTGA: -0.0157

Set 3
Target: Histone acetyltransferase KAT6A, winged helix 1, GST fusion (KAT6A, Homo sapiens, UniProt Q92794, residues 1-85)
Technique: protein binding microarray
Form: double-stranded DNA, one strand shown
Matrix: in vitro
Concentration: not given
Setting: 8-mer, flanks averaged, mean of 2 arrays, mostly near background
Reference: not given
Reading: higher = stronger binding
Endpoint: E-score
Target sequence (chain): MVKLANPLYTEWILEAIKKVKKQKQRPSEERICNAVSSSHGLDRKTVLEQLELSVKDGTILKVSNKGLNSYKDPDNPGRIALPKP
AAAACTGC: -0.171
AAACATTT: -0.136
ACATCAAG: -0.126
AGTTAGAG: -0.099
GCGAGTTA: 0.127
CATAGGAG: -0.171
CGTGCACG: 0.155
CTGAGCTC: -0.122
GCCAACAA: -0.171
CGAACTAC: 0.0186
CCCGGACA: 0.205

Single results of other studies
PhoQ, residues 284 288 289 292 302 303 ALASRC  fold induction (PhoP, residues 12 14 15 18 19 LYFRQ (Escherichia coli, UniProt P23836); Sort-seq, measured: YFP reporter; E. coli; PhoQ-PhoP variant library, with: 10 µM Mg2+; reference: high Mg2+ state, higher = stronger signaling): 8.12

A few entries again (set 2):
AAGTTGCA: 0.128
CCCACGGA: -0.292
AAGAGTCA: 0.097
CTGTTAGA: 0.037
